Measurements from different studies.
Compare with care: the assays were run in different laboratories. Values joined by “and” are separate records of one study, mostly repeats; a detail may differ. ± marks the error that the study gave.

Structure (SMILES) | test | system | conditions | how to read | measurement | value
O=C(O)CCCOc1ccc(F)cc1-c1cc(-c2ccccc2C(F)(F)F)n(-c2ccccc2)n1 | measured: Fbg | Crl:CD(SD) rats, female, blood | iv, 25 µg/kg, 1 day |  | blood chemistry | 204 ± 6.8 mg/dL
CCCCCCCCCCCCCCCC(=O)N[C@@H](CCC(=O)NCCCC[C@H](NC(=O)[C@H](CC(=O)O)NC(=O)[C@H](CO)NC(=O)[C@@H](NC(=O)[C@H](Cc1ccccc1)NC(=O)[C@@H](NC(=O)CNC(=O)[C@H](CCC(N)=O)NC(=O)[C@H](CO)NC(=O)[C@@H](N)Cc1c[nH]cn1)[C@@H](C)O)[C@@H](C)O)C(=O)N[C@@H](CO)C(=O)N[C@@H](CCC(=O)O)C(=O)N[C@@H](Cc1ccc(O)cc1)C(=O)N[C@@H](CC(C)C)C(=O)N[C@@H](CC(=O)O)C(=O)N[C@@H](CO)C(=O)N[C@@H](CCC(=O)O)C(=O)N[C@@H](CCCNC(=N)N)C(=O)N[C@@H](C)C(=O)N[C@@H](CCCNC(=N)N)C(=O)N[C@@H](CC(=O)O)C(=O)N[C@@H](Cc1ccccc1)C(=O)N[C@H](C(=O)N[C@@H](C)C(=O)N[C@@H](Cc1c[nH]c2ccccc12)C(=O)N[C@@H](CC(C)C)C(=O)N[C@@H](CCC(=O)O)C(=O)N[C@@H](C)C(=O)NCC(=O)NCC(=O)O)C(C)C)C(=O)O | measured: Headache | humans CrCl 30 to 45 mL/min | subcutaneous, 100 µg single dose |  | treatment-related adverse events | 9.1%
CC(C)[C@@H]1NC(=O)CNC(=O)[C@H](CC(N)=O)NC(=O)[C@H](CCCNC(=N)N)NC(=O)[C@H](Cc2ccc(O)cc2)NC(=O)[C@H](C(C)C)NC(=O)[C@@H](NC(=O)[C@@H](NC(=O)[C@H](CC(N)=O)NC(=O)[C@H](Cc2c[nH]c3ccccc23)NC(=O)[C@H](C)NC(=O)[C@H](Cc2ccccc2)NC(=O)CN)C(C)C)CSSC[C@@H](C(=O)N[C@@H](Cc2c[nH]cn2)C(=O)N[C@@H](CCCNC(=N)N)C(=O)N[C@@H](CCCNC(=N)N)C(=O)N[C@@H](C)C(=O)N[C@@H](CC(N)=O)C(N)=O)NC(=O)[C@H](C(C)C)NC(=O)[C@H](CCCNC(=N)N)NC1=O | circular dichroism, measured: antiparallel β-sheet | PBS | 80 µM, pH 7.4 |  | secondary structure content | 35.2%
CC[C@H](C)[C@H](NC(=O)[C@H](CCCCN)NC(=O)[C@H](CCC(=O)O)NC(=O)[C@H](CCCCN)NC(=O)[C@H](CO)NC(=O)[C@H](CCCCN)NC(=O)[C@H](CCCNC(=N)N)NC(=O)[C@H](Cc1ccccc1)NC(=O)[C@H](Cc1ccccc1)NC(=O)[C@H](CC(=O)O)NC(=O)CNC(=O)[C@H](CC(C)C)NC(=O)[C@@H](N)CC(C)C)C(=O)NCC(=O)N[C@@H](CCCCN)C(=O)N[C@@H](CCC(=O)O)C(=O)N[C@@H](Cc1ccccc1)C(=O)N[C@@H](CCCCN)C(=O)N[C@@H](CCCNC(=N)N)C(=O)N[C@H](C(=O)N[C@H](C(=O)N[C@@H](CCC(N)=O)C(=O)N[C@@H](CCCNC(=N)N)C(=O)N[C@H](C(=O)N[C@@H](CCCCN)C(=O)N[C@@H](CC(=O)O)C(=O)N[C@@H](Cc1ccccc1)C(=O)N[C@@H](CC(C)C)C(=O)N[C@@H](CCCNC(=N)N)C(=O)N[C@@H](CC(N)=O)C(=O)N[C@@H](CC(C)C)C(=O)N[C@H](C(=O)N1CCC[C@H]1C(=O)N[C@@H](CCCNC(=N)N)C(=O)N[C@H](C(=O)N[C@@H](CCC(=O)O)C(=O)N[C@@H](CO)C(=O)O)[C@@H](C)O)C(C)C)[C@@H](C)CC)C(C)C)[C@@H](C)CC | LC-MS | buffer with trypsin | 40 µM, 10 min, pH 7.5, 37 °C | baseline: 0 h | remaining intact peptide | 31% and 27.8% and 34.1%
CC[C@H](C)[C@H](NC(=O)[C@H](CCCNC(=N)N)NC(=O)[C@H](CCSC)NC(=O)[C@H](C)N)C(=O)N[C@@H](CO)C(=O)N[C@@H](CCCNC(=N)N)C(=O)N[C@H](C(=O)N[C@H](C(=O)N[C@@H](CC(C)C)C(=O)N[C@H](CC(=O)O)C(=O)N[C@@H](Cc1ccccc1)C(=O)N[C@@H](CC(C)C)C(=O)N[C@@H](Cc1ccccc1)C(=O)N[C@@H](CC(C)C)C(=O)N[C@@H](CCCNC(=N)N)C(=O)N[C@@H](CCCCN)C(=O)N[C@@H](CCCCN)C(=O)O)[C@@H](C)CC)[C@@H](C)CC | H&E staining | CD1 mice, lung | intratracheal, 50 µg/day, one week |  | lung toxicity | not toxic
Oc1ccc(Cl)c(-c2cc(Cl)c(Cl)cc2Cl)c1Cl | enantioselective gas chromatography | racemized sample | column temperature 140 °C |  | enantiomeric fraction | 0.5
CC[C@H](C)CCCCC(=O)N[C@@H](CCN)C(=O)N[C@H](C(=O)N[C@@H](CCN)C(=O)N[C@H]1CCNC(=O)[C@H]([C@@H](C)O)NC(=O)[C@H](CCN)NC(=O)[C@H](CCN)NC(=O)[C@H](CC(C)C)NC(=O)[C@@H](CC(C)C)NC(=O)[C@H](CCN)NC1=O)[C@@H](C)O |  | rat | subcutaneous, 10 mg/kg |  | AUC extrapolated percentage | 0.0486 ± 0.0019%
C=CCNc1c(O)cc2c(O)c1C[C@@H](C)C[C@H](OC)[C@H](O)[C@@H](C)/C=C(\C)[C@H](OC(N)=O)[C@@H](OC)/C=C\C=C(/C)C(=O)N2 |  | unresectable or metastatic STS, GIST, other | intravenous, 150 mg/m^2 |  | patients with headache TEAE | 0%
O=C1Nc2cc3[nH]nc(-c4ccncc4)c3cc2CN1Cc1ccccc1 | CTCAE v4.03 | advanced solid tumour patients | intravenous, 0.45 mg/kg, schedules 1/2 |  | patients with increased GGT | 0%
C[C@@H](NC(=O)N1C(=O)[C@H](Cc2ccnc(N)c2)[C@H]1C(=O)O)C1CCCCC1 |  | healthy adult Chinese volunteers | continuous intravenous infusion, 0.6 mg/kg/h, 5-day infusion, CTCAE 5.0 grading |  | incidence of AEs excluding prolonged aPTT | 87.5%
[2H]C([2H])([18F])[C@]([2H])(N)C(=O)O | PET | athymic nude mice, U-87 MG, muscle | dose not given, 15 min post-injection |  | tissue uptake | 1.45 ± 0.22 %ID/cc
CCCCCOc1ccc(-c2ccc(-c3ccc(C(=O)N[C@H]4C[C@@H](O)[C@@H](OCC[N+](C)(C)C)NC(=O)[C@@H]5[C@@H](O)[C@@H](C)CN5C(=O)[C@H]([C@@H](C)O)NC(=O)[C@H]([C@H](O)[C@@H](O)c5ccc(O)cc5)NC(=O)[C@@H]5C[C@@H](O)CN5C(=O)[C@H]([C@@H](C)O)NC4=O)cc3)cc2)cc1 |  | adult ICU patients, mITT, serum | dose not given, Baseline |  | bilirubin | 16.7 µmol/L
CC/C(=C(\c1ccccc1)c1ccc(OCCN(C)C)cc1)c1ccccc1 |  | CD-1 mouse, male, plasma | intraperitoneal, 1 mg/kg |  | AUC(0-inf) | 385 ng·h/mL
COc1ccc(C[C@@H]2NC(=O)[C@H]([C@@H](C)O)NC(=O)[C@@H]3[C@@H]4CCN3C(=O)[C@@H]3Cc5cn(c6ccc(F)cc56)CCCCCCN(Cc5ccc(cc5)CCNC(=O)[C@]5(C)CCCN5C2=O)C(=O)CCC(=O)N[C@@H](C)C(=O)N[C@H](CNC(=O)CCCCC[N+](C)(C)C)C(=O)N[C@@H](Cc2cccc(c2)CNC(=O)CO4)C(=O)N3)cc1 | measured: decreased appetite | human | dose not given |  | participants with adverse event | 0%
Cn1cncc1-c1c(F)cncc1NC(=O)c1c(N)nn2cc(F)cnc12 |  | human patients | oral, dose not given, 21 days, all doses |  | upper gastrointestinal haemorrhage DLT | 2%
NCCCC[C@@H]1NC(=O)[C@@H](Cc2c[nH]c3ccccc23)NC(=O)[C@H](c2ccccc2)NC(=O)[C@@H]2C[C@@H](OC(=O)NCCN)CN2C(=O)[C@H](Cc2ccccc2)NC(=O)[C@H](Cc2ccc(OCc3ccccc3)cc2)NC1=O |  | healthy volunteers | subcutaneous, 600 µg twice daily, day 5, 3.00 h |  | QTcI change from baseline | 6.3 ms
CO[C@H]1C[C@@H]2CC[C@@H](C)[C@@](O)(O2)C(=O)C(=O)N2CCCC[C@H]2C(=O)O[C@H]([C@H](C)C[C@@H]2CC[C@@H](OC(=O)NCCOCCOCCOCCOCCOCCOCCOCCOCCC(=O)N3CCc4cc(Cn5nc(-c6ccc7oc(N)nc7c6)c6c(N)ncnc65)ccc4C3)[C@H](OC)C2)C[C@@H](O)[C@H](C)/C=C(\C)[C@@H](O)[C@@H](OC)C(=O)[C@H](C)C[C@H](C)/C=C/C=C/C=C/1C | dose-escalation trial | patients with advanced solid tumours | intravenous, 1.6 mg/3 mg weekly, grade ≥3 |  | abdominal pain TEAE incidence | 0%
CC(=O)c1c(C)c2cnc(Nc3ccc(C4CCN(CCS(C)(=O)=O)CC4)cn3)nc2n(C2CCCC2)c1=O |  | HR+/HER2- advanced breast cancer patients | oral, 300 mg |  | patients with any TEAE | 100%
C[C@]1(CO)Cc2ncn(-c3ccc(C#N)c(Cl)c3)c2C(=O)O1 |  | human, plasma | 20 mg single dose, geometric mean |  | Cmax | 679 nM
C=CC(=O)Nc1cc(Nc2nccc(Nc3cc(Cl)c(F)cc3C(C)(C)O)n2)c(OC)cc1N1CC[C@@H](N(C)C)C1 | treatment-emergent adverse events | human | oral, 400 mg, phase I clinical trial |  | incidence of blood creatine phosphokinase increased | 60%
Cn1cc(-c2nc(N[C@@H]3CCCC[C@@H]3N)c(F)c3c2C(=O)NC3)cn1 | measured: Rectal haemorrhage | patients with relapsed or refractory AML | oral, 140 mg once daily |  | hemorrhagic adverse events | 20%
COc1ncccc1-c1cnn2ccc(N3CCN(C(=O)OC(C)C)CC3)nc12 |  | rat, thermal hyperalgesia model, plasma | oral, 10 mg/kg, 180 min |  | drug concentration | 810 nM
C=C(CN(C(=O)c1c(C(F)F)nn(C)c1F)C1CC1)c1ccc(Cl)cc1Cl | static acute toxicity test | zebrafish (Brachydanio rerio) | 0.833 mg a.i./L, 48 h |  | mortality | 0%
CCc1ccc(CC/C=C/c2ccc3c(c2)C(=O)CC3)cc1 |  | Sprague-Dawley rat, female | oral, 120 mg/kg/day, 14 days |  | TG | 0.58 mM
O=C(Nc1ccccc1)C1CCN(C(=O)Oc2cccnc2)CC1 | psychotropic effects VAS | healthy women | 100 mg | baseline: pre-dose baseline, direction not given | change in Thoughts score | 0.3
O=c1ccc2ncc(=O)n3c2n1C[C@H]3CN1CCC(NCc2cc3c(cn2)OCCC3)CC1 |  | healthy human volunteers | oral, 1500 mg, rifampicin cohort, added: rifampicin 600 mg |  | incidence of gastrointestinal disorders | 18%
COc1cccc(Oc2ccccc2NC(=O)CNC(=O)c2cccc3ccccc23)c1 |  | esterase-deficient SCID mice, male | oral, 100 mg/kg/day, 14 days, toxicity study |  | serum sodium | 162 mmol/L and 164 mmol/L and 165 mmol/L
CNC(=O)c1cc(Oc2ccc(NC(=O)Nc3cc(C(C)(C)C)nn3-c3ccc4ncccc4c3)c(F)c2)ccn1 | intraocular pressure increased, NCI CTC v3.0 | human patients | oral, all dose levels |  | related SAE | 2%
